Measured values pooled from the literature.
Compare with care: the assays were run in different laboratories. Values joined by “and” are separate records of one study, mostly repeats; a detail may differ. ± gives the spread as reported.

With `CCn1cc(-c2cc(Cn3ccoc3=N)cc3c2CCN([C@@H](C)c2cc(OC)ccn2)C3=O)c(C(F)(F)F)n1` the EC50 was 16.8 µM (Kasumi 1; cell growth, inhibitor; 120 h).
`CCc1cnc(N2CCC(c3nc(COc4ccc(-n5cnnn5)cc4)cs3)CC2)nc1` — result for “normalized enrichment score”: -0.915 (HEK-293T; RNA-seq GSEA, refers to: HALLMARK_EPITHELIAL_MESENCHYMAL_TRANSITION; concentration not given; direction not given).
With `Nc1ncnc2c1ncn2[C@@H]1O[C@H](CO)[C@@H](O)[C@H]1O` the viability was 75.4 a.u. and 82.5 a.u. and 84.6 a.u. (unstimulated human T cells; 316 nM, 72 h; higher = more viable cells).
`COc1cc2c(Oc3ccc(NC(=O)C4(C(=O)Nc5ccc(F)cc5)CC4)cc3F)ccnc2cc1OCCCN1CCOCC1` has an inhibition of 94.4% (BT-16; cell viability, MTT; 10 µM, 72 h).
Under “G1 phase cells”, `COc1cc([C@@H]2c3cc4c(cc3[C@@H](O[C@@H]3O[C@@H]5CO[C@@H](C)O[C@H]5[C@H](O)[C@H]3O)[C@H]3COC(=O)[C@H]23)OCO4)cc(OC)c1O` is recorded as 34.9 ± 5.28% (HepG2 spheroids; flow cytometry; 1.7 µM, 96 h).
`Cn1cc(Nc2nccc(-c3ccc4c(c3)CN(C3COC3)CC[C@H]4NC(=O)c3cn(C(C)(C)C)nn3)n2)cn1`: “pathway activation z-score” 4.03 (mouse splenic B cells; refers to: eNOS signalling; 30 mg/kg, IgD-activated in vivo; baseline: vehicle, direction not given).
For `Cn1cc(-c2ccc(-c3cncc(Cl)c3N3CCC4(CCNC4=O)CC3)cc2)cn1`, “log2 fold change” read 1.51 (COLO 205; gene expression, microarray, refers to: CDKN1A mRNA; concentration not given, 2 h; baseline: untreated cells).
With `CO[C@@]12[C@H](COC(N)=O)C3=C(C(=O)C(C)=C(N)C3=O)N1C[C@@H]1N[C@@H]12` the inhibition was 92.9% (BT-16; cell viability, MTT; 10 µM, 72 h).
With `O=C(/C=C/C=C/C=C/C1CCCCC1)NC1=C[C@@](O)(/C=C/C=C/C=C/C(=O)NC2=C(O)CCC2=O)[C@@H]2O[C@@H]2C1=O` the GI50 was 18.6 µM (MKN-45; cell growth, CellTiter-Glo; 78 h).
The phospho ratio of `CSc1cc(Oc2ccnc3[nH]c(=O)cnc23)ccc1NC(=O)Nc1cc(C(C)(C)C)nn1-c1ccccc1` is reported as 0.98 (patient-derived cell line clone B; RPPA, refers to: phosphorylated Rb; human; 1 µM, 4 h; baseline: DMSO).
For `COc1cnc2cccc(N3CCc4c(cc(Cn5ccnc5C)cc4-c4cn(C)nc4C(F)(F)F)C3=O)c2c1`, the EC50 was 7.13 µM (CAMA-1; cell growth, inhibitor; 120 h).
For `Cc1cccc(-c2[nH]c(CNc3ccccc3F)nc2-c2ccc3ncnn3c2)n1`, “surface marker level” read 55% (RPMI-8226; flow cytometry, refers to: CD220; concentration not given; baseline: comparator compound alone).
`CCOc1cc(-c2nncn2C)ccc1Nc1ncc2cc(C)nc(N3CC4(CCOCC4)C3)c2n1` gave a GI50 of 0.13 µM (CAL-51; cell growth; 72 h).
`COc1cccc2c1c(O)c(C(=O)N(C)c1ccc(C(F)(F)F)cc1)c(=O)n2C` — result for mRNA level: “decreased” (mouse bone marrow-derived macrophages; qPCR, refers to: Fizz1; concentration not given, together with: IL-4).
Under “early apoptotic cells”, `Cc1cc(NS(=O)(=O)c2ccc(NC(=O)/C(C#N)=C/c3ccc(N4CCCCC4)cc3)cc2)no1` is recorded as 41.2% (HCT-116; annexin V/7-AAD flow cytometry; IC50, 48 h).
For `Fc1ccc(-c2ccnc3[nH]c(C(F)(F)F)nc23)cc1`, the Emax was 6 to 22% (L6 myoblasts; oxygen consumption rate, Seahorse XF; baseline: BAM15 maximal respiration).
`CCS(=O)(=O)c1cccc(-c2cc(C(=O)NC3CCN(C)CC3)c(C)c3[nH]c4ncc(C)cc4c23)c1` has an inhibition of 94.5% (BT-16; cell viability, MTT; 10 µM, 72 h).
The fold change of `C=CC1=C(C)c2cc3[n-]c(cc4nc(cc5[n-]c(cc1n2)c(C)c5C=C)C(C)=C4CCC(=O)O)c(CCC(=O)O)c3C.[Zn+2]` is reported as 1.57 (SH-SY5Y; RNA-seq, refers to: RFTN1 mRNA; 5 µM, 5 h; baseline: untreated cells).
For `CCCCC(CC)CNC(=N)NC(=N)NCCCCCCNC(=N)NC(=N)NCC(CC)CCCC.Cl.Cl` (centres unmarked), the inhibition was 94.4% (BT-16; cell viability, MTT; 10 µM, 72 h).
`CC(C)(C)c1nc(-c2cccc(NS(=O)(=O)c3c(F)cccc3F)c2F)c(-c2ccnc(N)n2)s1` — result for “late apoptotic cells”: 4.2 ± 1.5% (C13; annexin V/PI flow cytometry; concentration not given, 48 h; baseline: control subtracted).

Some of these lines once more:
`CCS(=O)(=O)c1cccc(-c2cc(C(=O)NC3CCN(C)CC3)c(C)c3[nH]c4ncc(C)cc4c23)c1` has an inhibition of 94.5% (BT-16; cell viability, MTT; 10 µM, 72 h).
The fold change of `C=CC1=C(C)c2cc3[n-]c(cc4nc(cc5[n-]c(cc1n2)c(C)c5C=C)C(C)=C4CCC(=O)O)c(CCC(=O)O)c3C.[Zn+2]` is reported as 1.57 (SH-SY5Y; RNA-seq, refers to: RFTN1 mRNA; 5 µM, 5 h; baseline: untreated cells).
The phospho ratio of `CSc1cc(Oc2ccnc3[nH]c(=O)cnc23)ccc1NC(=O)Nc1cc(C(C)(C)C)nn1-c1ccccc1` is reported as 0.98 (patient-derived cell line clone B; RPPA, refers to: phosphorylated Rb; human; 1 µM, 4 h; baseline: DMSO).
